Experimental data collected from several papers.
Target: Cytochrome P450 3A4 (CYP3A4, Homo sapiens, UniProt P08684)

SMILES | test | test system | setting | measurement | result
Cc1[nH]nc2c1N=C(c1ccccc1Cl)c1cnc(N3CCOCC3)cc1N2 | enzyme activity, inhibitor | human liver microsomes | added: midazolam | IC50 | 4.42 µM
N#Cc1c(Cl)ccc2c1C1(CCN(C(=O)c3cnc4[nH]ncc4c3)CC1)C(=O)N2CC(=O)NCC(F)(F)F | enzyme activity, inhibitor |  |  | IC50 | > 50 µM
CN[C@@H]1[C@H](O)[C@H](NC)[C@H]2O[C@]3(O)[C@H](O[C@@H]2[C@H]1O)O[C@H](C)C[C@H]3NC(=O)Cc1ccc(Cl)cn1 |  |  | 10 µM | inhibition | 2%
CNC(=O)C1CCCN(C(=O)C2CC3CCC2N3C(=O)[C@@H]2C[C@@H](O)CN2C(=O)NCc2cccc(Cl)c2F)C1 (mixture of isomers) | inhibitor | human liver microsomes | added: midazolam | IC50 | > 50 µM
Cc1cc(-c2ccc3ccccc3c2)nnc1NCCN1CCN(C)CC1 | substrate | recombinant enzyme | 100 nM, 1 h | remaining compound | 76%
O=C(CN1C(=O)C2(CCN(C(=O)c3ccc4[nH]ncc4c3)CC2)c2ccccc21)NCC(F)(F)F | enzyme activity, inhibitor |  |  | IC50 | > 50 µM
CC(=O)c1cccc(-c2nc(Nc3ccccc3)nc(N3CCOCC3)n2)c1 |  |  | 10 µM | inhibition | < 10%
N#Cc1cccc2c1C1(CCN(C(=O)c3cnc4[nH]ncc4c3)CC1)C(=O)N2CC(=O)NCC(F)(F)F | enzyme activity, inhibitor |  |  | IC50 | 42 µM
C[C@H](NCc1ccc(-c2ccc(C(F)(F)F)cc2)cc1)C(N)=O | P450-Glo luminescence | potassium phosphate buffer | 10 µM, pH 7.4, isoform 3A4 | inhibition | 98.8%

For quick reference, copied from above:
SMILES | test | test system | setting | measurement | result
CC(=O)c1cccc(-c2nc(Nc3ccccc3)nc(N3CCOCC3)n2)c1 |  |  | 10 µM | inhibition | < 10%
